Measured values gathered from unrelated publications.
Protocols differ between the studies behind these lines. Several values in a cell are separate wells, animals, samples, runs or records. Numbers after ± are the reported error.
CASP8: Caspase-8 (CASP8, Homo sapiens, UniProt Q14790)
Sequence of UniProt Q14790 (whole entry, looked up): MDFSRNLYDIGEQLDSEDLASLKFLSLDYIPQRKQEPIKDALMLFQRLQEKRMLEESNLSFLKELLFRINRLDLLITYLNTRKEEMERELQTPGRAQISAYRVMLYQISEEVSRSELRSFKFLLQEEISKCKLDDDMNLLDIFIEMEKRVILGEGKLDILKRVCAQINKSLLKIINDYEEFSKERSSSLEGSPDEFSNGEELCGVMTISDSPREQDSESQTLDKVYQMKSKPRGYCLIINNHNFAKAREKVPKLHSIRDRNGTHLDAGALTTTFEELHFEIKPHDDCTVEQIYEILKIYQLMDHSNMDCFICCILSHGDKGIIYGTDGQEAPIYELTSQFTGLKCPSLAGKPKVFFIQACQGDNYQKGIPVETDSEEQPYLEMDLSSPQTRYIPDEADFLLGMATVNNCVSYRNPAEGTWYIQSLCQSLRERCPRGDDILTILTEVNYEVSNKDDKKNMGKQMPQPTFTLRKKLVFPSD
HSD3B1: 3 beta-hydroxysteroid dehydrogenase/Delta 5-->4-isomerase type 1 (HSD3B1, Homo sapiens, UniProt P14060)
Sequence of UniProt Q92633 (whole entry, unmodified, looked up): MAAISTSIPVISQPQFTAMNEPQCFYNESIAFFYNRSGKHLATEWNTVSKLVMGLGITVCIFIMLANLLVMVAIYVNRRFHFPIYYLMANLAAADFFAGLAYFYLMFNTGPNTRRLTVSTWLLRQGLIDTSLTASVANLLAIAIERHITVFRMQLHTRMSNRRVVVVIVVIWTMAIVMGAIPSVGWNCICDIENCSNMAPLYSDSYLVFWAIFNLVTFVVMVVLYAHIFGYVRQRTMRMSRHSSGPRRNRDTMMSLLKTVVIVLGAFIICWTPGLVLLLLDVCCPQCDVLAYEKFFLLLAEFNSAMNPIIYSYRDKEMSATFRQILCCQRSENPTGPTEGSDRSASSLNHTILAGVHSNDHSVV
Sequence of UniProt P14060 (whole entry, looked up): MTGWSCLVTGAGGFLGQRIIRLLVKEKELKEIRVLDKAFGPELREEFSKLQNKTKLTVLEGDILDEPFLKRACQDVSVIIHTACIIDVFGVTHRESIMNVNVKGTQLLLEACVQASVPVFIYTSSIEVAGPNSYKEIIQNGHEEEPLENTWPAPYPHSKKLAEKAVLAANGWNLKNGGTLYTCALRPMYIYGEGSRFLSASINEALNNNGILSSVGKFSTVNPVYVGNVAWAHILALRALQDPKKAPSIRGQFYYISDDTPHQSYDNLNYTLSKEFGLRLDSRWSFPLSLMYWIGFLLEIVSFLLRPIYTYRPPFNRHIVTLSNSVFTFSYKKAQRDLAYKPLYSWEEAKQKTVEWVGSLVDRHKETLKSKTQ
Sequence of UniProt P35821 (whole entry, looked up): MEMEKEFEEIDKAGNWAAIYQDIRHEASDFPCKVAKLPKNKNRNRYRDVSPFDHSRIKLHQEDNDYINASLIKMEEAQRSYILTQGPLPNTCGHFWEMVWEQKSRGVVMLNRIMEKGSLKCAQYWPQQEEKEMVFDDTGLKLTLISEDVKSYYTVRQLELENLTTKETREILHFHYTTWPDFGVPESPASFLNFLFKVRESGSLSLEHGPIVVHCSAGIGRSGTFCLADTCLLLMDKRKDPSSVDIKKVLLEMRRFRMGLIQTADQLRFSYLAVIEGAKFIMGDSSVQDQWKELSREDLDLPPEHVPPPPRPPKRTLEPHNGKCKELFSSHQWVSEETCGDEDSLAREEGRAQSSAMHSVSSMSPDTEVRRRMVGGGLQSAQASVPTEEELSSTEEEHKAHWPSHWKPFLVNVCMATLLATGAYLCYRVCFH
Sequence of UniProt Q92851 (whole entry, looked up): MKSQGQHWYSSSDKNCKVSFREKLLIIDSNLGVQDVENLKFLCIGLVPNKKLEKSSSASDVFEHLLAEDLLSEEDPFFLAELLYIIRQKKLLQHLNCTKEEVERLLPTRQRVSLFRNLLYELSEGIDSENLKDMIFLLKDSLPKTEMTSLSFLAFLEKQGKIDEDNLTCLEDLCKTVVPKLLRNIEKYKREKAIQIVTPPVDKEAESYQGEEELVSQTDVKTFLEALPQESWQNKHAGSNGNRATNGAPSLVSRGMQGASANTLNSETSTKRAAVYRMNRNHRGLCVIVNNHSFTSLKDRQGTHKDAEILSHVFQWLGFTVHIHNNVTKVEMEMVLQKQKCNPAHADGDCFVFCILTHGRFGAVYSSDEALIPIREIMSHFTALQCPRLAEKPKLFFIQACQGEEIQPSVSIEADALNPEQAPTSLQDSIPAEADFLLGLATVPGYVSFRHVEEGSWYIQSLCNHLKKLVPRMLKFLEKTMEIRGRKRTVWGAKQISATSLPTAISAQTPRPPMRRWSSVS
Sequence of UniProt Q96C86 (whole entry, looked up): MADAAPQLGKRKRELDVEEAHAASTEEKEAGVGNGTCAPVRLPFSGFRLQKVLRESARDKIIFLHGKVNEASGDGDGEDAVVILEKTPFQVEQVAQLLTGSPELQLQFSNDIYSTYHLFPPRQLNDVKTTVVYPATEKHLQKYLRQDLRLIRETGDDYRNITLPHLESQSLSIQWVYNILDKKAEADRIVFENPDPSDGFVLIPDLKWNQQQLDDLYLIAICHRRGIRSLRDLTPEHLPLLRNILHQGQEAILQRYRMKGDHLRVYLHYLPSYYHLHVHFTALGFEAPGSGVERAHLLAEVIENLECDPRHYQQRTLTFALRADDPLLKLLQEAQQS
Sequence of UniProt P31645 (whole entry, looked up): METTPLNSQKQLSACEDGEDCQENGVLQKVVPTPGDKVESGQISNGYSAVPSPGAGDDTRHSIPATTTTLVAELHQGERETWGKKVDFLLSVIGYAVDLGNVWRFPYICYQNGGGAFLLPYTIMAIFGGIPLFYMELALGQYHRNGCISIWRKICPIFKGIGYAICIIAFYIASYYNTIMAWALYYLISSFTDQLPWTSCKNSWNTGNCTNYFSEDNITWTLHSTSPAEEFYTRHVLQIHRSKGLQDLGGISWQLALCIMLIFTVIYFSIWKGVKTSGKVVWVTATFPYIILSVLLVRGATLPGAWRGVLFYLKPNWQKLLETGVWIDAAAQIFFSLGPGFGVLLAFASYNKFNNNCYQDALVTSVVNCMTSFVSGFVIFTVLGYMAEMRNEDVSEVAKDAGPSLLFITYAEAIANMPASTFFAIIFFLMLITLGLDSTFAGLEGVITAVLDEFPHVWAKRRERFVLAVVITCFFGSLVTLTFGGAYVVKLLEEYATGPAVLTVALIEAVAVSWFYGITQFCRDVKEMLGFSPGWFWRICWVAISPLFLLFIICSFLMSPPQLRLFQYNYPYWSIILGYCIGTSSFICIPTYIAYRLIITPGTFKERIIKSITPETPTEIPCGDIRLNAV
Sequence of UniProt Q8TB52 (whole entry, looked up): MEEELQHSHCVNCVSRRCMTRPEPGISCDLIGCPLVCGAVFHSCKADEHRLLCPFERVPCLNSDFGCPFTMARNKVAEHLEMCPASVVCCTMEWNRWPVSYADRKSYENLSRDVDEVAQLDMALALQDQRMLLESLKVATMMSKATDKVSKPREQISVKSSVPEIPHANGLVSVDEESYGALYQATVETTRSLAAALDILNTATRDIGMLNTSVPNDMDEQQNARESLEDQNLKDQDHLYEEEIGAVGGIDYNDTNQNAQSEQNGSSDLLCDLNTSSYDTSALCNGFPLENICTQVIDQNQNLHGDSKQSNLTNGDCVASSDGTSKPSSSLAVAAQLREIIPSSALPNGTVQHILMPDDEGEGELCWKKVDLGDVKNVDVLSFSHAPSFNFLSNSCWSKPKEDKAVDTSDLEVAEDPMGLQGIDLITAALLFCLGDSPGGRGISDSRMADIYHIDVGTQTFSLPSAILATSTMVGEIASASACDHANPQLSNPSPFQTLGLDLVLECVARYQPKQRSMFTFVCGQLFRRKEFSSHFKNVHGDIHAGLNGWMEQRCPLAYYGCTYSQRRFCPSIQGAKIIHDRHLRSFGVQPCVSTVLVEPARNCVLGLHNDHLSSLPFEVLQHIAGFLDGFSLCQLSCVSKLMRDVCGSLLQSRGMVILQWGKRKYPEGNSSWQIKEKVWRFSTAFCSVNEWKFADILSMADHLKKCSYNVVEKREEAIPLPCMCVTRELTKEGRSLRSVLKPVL
Sequence of UniProt Q07065 (whole entry, looked up): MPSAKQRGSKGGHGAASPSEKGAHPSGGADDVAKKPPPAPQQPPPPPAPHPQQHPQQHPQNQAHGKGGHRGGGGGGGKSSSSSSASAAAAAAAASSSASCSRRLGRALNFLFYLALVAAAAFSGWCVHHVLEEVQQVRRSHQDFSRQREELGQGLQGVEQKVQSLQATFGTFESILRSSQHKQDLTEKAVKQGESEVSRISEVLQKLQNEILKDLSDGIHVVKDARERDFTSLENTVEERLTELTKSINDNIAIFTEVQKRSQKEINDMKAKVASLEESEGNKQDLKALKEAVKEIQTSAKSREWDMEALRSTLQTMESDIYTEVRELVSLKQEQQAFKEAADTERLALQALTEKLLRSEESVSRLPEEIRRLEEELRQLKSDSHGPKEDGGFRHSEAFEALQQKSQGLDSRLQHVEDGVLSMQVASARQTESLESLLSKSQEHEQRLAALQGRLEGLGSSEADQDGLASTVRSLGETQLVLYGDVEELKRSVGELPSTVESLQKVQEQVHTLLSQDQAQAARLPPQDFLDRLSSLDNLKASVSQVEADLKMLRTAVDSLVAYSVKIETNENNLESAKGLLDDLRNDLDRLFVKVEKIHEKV
Sequence of UniProt P57764 (whole entry, looked up): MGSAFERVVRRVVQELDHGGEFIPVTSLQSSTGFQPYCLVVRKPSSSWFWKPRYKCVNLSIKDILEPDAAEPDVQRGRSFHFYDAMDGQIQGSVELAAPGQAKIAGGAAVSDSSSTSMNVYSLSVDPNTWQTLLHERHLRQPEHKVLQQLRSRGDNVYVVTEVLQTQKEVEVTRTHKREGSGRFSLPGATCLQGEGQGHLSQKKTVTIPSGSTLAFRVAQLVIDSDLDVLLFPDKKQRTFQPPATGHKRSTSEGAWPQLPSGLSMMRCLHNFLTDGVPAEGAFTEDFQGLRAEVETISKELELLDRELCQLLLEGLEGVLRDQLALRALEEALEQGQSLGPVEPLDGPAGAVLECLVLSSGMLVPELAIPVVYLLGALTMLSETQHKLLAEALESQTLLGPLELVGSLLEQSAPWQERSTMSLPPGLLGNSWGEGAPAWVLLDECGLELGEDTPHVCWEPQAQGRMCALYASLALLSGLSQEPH

CCN(CC)C(CO)c1cccc2c(C)c(C)oc12 (stereo not shown)  fold change (Lysophosphatidic acid receptor 1 (LPAR1, Homo sapiens, UniProt Q92633, W271A); G-protein dissociation, agonist, NanoBiT; HEK-293T; 1 nM, W271A mutant; reference: baseline luminescence): 1.03 and 0.996 and 0.993 and 1 and 1.04
CC(=O)N[C@H](CCc1ccccc1)C(=O)N[C@@H](CCCC(=O)O)C(=O)N1C[C@H](O)C[C@H]1C(=O)N[C@@H](CC(=O)O)C(=O)COC(=O)c1c(C)cccc1C  kinact/KI (Caspase-10 (CASP10, Homo sapiens, UniProt Q92851); enzyme activity, inhibitor): 12400 M⁻¹ s⁻¹
CC[C@H](C)[C@H](NC(=O)[C@H](CCC(N)=O)NC(=O)[C@@H](NC(=O)[C@@H]1CCCN1[C@@H]1CN(C(=O)[C@H](CCCCN)NC(=O)[C@H](CC(N)=O)NC(=O)[C@@H](NC(=O)[C@@H](NC(=O)[C@H](CCC(N)=O)NC(=O)[C@@H](N)C(C)C)[C@@H](C)CC)[C@@H](C)CC)CC[C@H]1NS(=O)(=O)c1ccc(C)cc1)C(C)C)C(=O)N[C@H](C(=O)N[C@@H](Cc1ccc(O)cc1)C(=O)N[C@@H](CCCCN)C(N)=O)C(C)C  ThT fluorescence (Microtubule-associated protein tau, PHF6* peptide (MAPT, Homo sapiens, UniProt P10636); fibril formation, ThT fluorescence; 1-fold of peptide, pH 7.4, with: Ac-PHF6* 25 µM, heparin; reference: untreated): 17 ± 4%
C=CS(=O)(=O)c1ccc(Nc2nc(OCC3CCCCC3)c3nc[nH]c3n2)cc1  kon (Gasdermin-D (GSDMD, Homo sapiens, UniProt P57764); binding, BLI): 1510 M⁻¹ s⁻¹
CC(C=CC=C(C)C=CC1=C(C)CCCC1(C)C)=CC=O  plasma membrane localization (Rhodopsin (RHO, Homo sapiens, UniProt P08100, P23H); immunostaining, measured: opsin; COS-7 transfected; 50.00 µM, unit not given; reference: surface over total stained cells): 0.98
CC(=O)N[C@@H](CC(C)C)C(=O)N[C@H](C(=O)N[C@@H](Cc1c[nH]cn1)C(=O)N[C@@H](CC(=O)O)C(=O)COC(=O)c1c(C)cccc1C)C(C)(C)C  kinact/KI (CASP8; enzyme activity, inhibitor): 978000 M⁻¹ s⁻¹
C#CCOC(=O)[C@]1(C)C=C(C(=O)OC(C)(C)C)C(=O)CC1  normalized kinase activity (Mitogen-activated protein kinase 8 (MAPK8, Homo sapiens, UniProt P45983); enzyme activity, D-SENSOR; 0.1829 µM, mean of replicates): 1.03
CC(=O)N[C@@H](CC(=O)O)C(=O)N[C@@H](CO)C(=O)N[C@H](C(=O)N[C@@H](CC(=O)O)C(=O)COC(=O)c1c(C)cccc1C)C(C)C  kinact/KI (CASP8; enzyme activity, inhibitor): 82000 M⁻¹ s⁻¹
O=c1cc(NCCc2ccccc2)c2ccccc2o1  agonist activity (Alpha-1A adrenergic receptor (ADRA1A, Homo sapiens, UniProt P35348); intracellular Ca2+ mobilization, agonist; COS-7; 500 µM; reference: 3 µM ionomycin): 18.1 ± 2.35%
O=c1c(-c2ccccc2Cl)coc2cc(O)ccc12  DHEA metabolism (HSD3B1; [3H]-DHEA conversion; LNCaP; 0.1 µM, normalized to protein, unit not given; reference: vehicle): 0
CC[C@H](C)[C@H](NC(=O)[C@@H](NC(=O)[C@@H](NC(=O)[C@@H](NC(=O)[C@H](CCCCN)NC(=O)[C@H](CCC(=O)O)NC(=O)[C@H](C)N)C(C)C)C(C)C)C(C)C)C(=O)N[C@H](C(=O)N[C@@H](CCCCN)C(N)=O)[C@@H](C)O  ThT fluorescence (Microtubule-associated protein tau (MAPT, Homo sapiens, UniProt P10636); fibril formation, ThT fluorescence; 1-fold of tau, at plateau, with: wild-type tau 10 µM, heparin; reference: untreated): 86 ± 15%
CC[C@H](C)[C@@H]1NC(=O)[C@H](Cc2ccccc2)NC(=O)[C@H](CCC(=O)O)NC(=O)[C@H](CCCNC(=N)N)NC(=O)CNC(=O)[C@@H](NC(=O)[C@H](CC(C)C)NC(=O)[C@H](CCCNC(=N)N)NC(=O)[C@@H](NC(=O)CNC(=O)[C@H](Cc2ccc(O)cc2)NC(=O)[C@@H]2CCCN2C(=O)[C@H](C)NC(=O)[C@H](C)NC(=O)[C@@H](N)CCCNC(=N)N)C(C)C)CSSC[C@@H]2NC(=O)[C@@H](NC(=O)[C@H](CO)NC(=O)[C@H](CO)NC(=O)[C@H](CO)NC(=O)[C@H](CC(C)C)NC(=O)CNC(=O)[C@H](C)NC(=O)[C@H](CC(C)C)NC(=O)[C@@H](NC(=O)[C@@H](N)CC(=O)O)C(C)C)CSSC[C@H](NC(=O)CNC(=O)[C@H](Cc3c[nH]c4ccccc34)NC(=O)[C@H](CCCCN)NC2=O)C(=O)N[C@@H](CO)C(=O)N[C@@H](CCCCN)C(=O)N[C@@H](CO)C(=O)N[C@@H](CCC(=O)O)C(=O)N[C@@H]([C@@H](C)CC)C(=O)N[C@@H](CO)C(=O)N[C@@H](CO)C(=O)N[C@@H](CC(C)C)C(=O)N[C@H](C(=O)O)CSSC[C@@H](C(=O)NCC(=O)NCC(=O)N[C@@H](CO)C(=O)N[C@@H](CCCNC(=N)N)C(=O)N[C@@H](Cc2c[nH]c3ccccc23)C(=O)O)NC(=O)[C@H]([C@@H](C)O)NC(=O)[C@H](Cc2ccccc2)NC(=O)[C@H]([C@@H](C)CC)NC(=O)[C@H](C(C)C)NC(=O)[C@H](C)NC(=O)[C@H](CCCNC(=N)N)NC1=O  Emax (Relaxin-3 receptor 1 (RXFP3, Homo sapiens, UniProt Q9NSD7, S163A); HEK-293T; reference: wild type): 49.9 ± 5.85%
ClC1C[N+]2=Cc3ccc4[n]3[Au-]23[n]2c(ccc2-c2nc5ccccc5nc2-4)C=[N+]3C1.F[P-](F)(F)(F)(F)F  Hill coefficient (DNA topoisomerase 1 (TOP1, Homo sapiens, UniProt P11387)): 2.2
CCCCCC(O)/C=C/C=O (stereo not shown)  isoTOP-ABPP competition ratio (F-box only protein 30 (FBXO30, Homo sapiens, UniProt Q8TB52); competitive isoTOP-ABPP; Ramos soluble proteome; 100 µM, 60 min, with: iodoacetamide probe; reference: DMSO over compound-treated, higher = stronger cysteine blockade): 1.5
C#CCCCCNC(=O)c1ccc(N(C(=O)C=C)c2ccc(Br)cc2)cc1  reactivity ratio (Cytoskeleton-associated protein 4 (Homo sapiens, UniProt Q07065); mass spectrometry profiling; H460 cell lysate; 100 µM over 10 µM, UniProt Q07065; reference: high over low concentration): 0.682
CN(C)Cc1cc(-c2coc3cc(O)ccc3c2=O)ccc1Cl  DHEA metabolism (HSD3B1; [3H]-DHEA conversion; LNCaP; 0.1 µM, normalized to protein, unit not given; reference: vehicle): 2.1
CCCC[C@H](NC(C)=O)C(=O)N[C@@H](CCC(=O)O)C(=O)N[C@@H](CO)C(=O)N[C@@H](CC(=O)O)C(=O)COC(=O)c1c(C)cccc1C  kinact/KI (CASP8; enzyme activity, inhibitor): 1.04e+06 M⁻¹ s⁻¹
O=C1c2sc(-c3ccc(N4CCC(F)C4)nc3F)nc2CCN1c1cccnc1 (stereo not shown)  inhibition (Sodium-dependent serotonin transporter (SLC6A4, Homo sapiens, UniProt P31645); ligand displacement, radioligand; 1 µM): 1%
CC(=O)N[C@@H](CC(=O)O)C(=O)N[C@@H](CCC(=O)O)C(=O)N[C@H](C(=O)N[C@@H](CC(=O)O)C(=O)COC(=O)c1c(C)cccc1C)[C@@H](C)OCc1ccccc1  kinact/KI (CASP8; enzyme activity, inhibitor): 886000 M⁻¹ s⁻¹
CC1(C)C[C@@H](Nc2cccc(-c3sc(C(=O)O)c(OCC(=O)O)c3Cl)c2)CCN1S(=O)(=O)Cc1cccc(NC(=O)CN2CCC(c3ccc4c(c3)oc(=O)n4C3CCC(=O)NC3=O)CC2)c1 (stereo partly shown)  remaining protein (Tyrosine-protein phosphatase non-receptor type 1 (Mus musculus, UniProt P35821); degrader, Western blot; B16-F10; 0.0001 µM): 112% and 99.4%
CC(=O)N[C@@H](CC(C)C)C(=O)N[C@H](C(=O)N[C@@H](Cc1ccc(O)cc1)C(=O)N[C@@H](CC(=O)O)C(=O)COC(=O)c1c(C)cccc1C)C(C)(C)C  kinact/KI (CASP8; enzyme activity, inhibitor): 277000 M⁻¹ s⁻¹
C[n+]1cn([C@@H]2O[C@H](COP(=O)(O)OP(=O)([O-])OP(=O)(O)O)[C@@H](O)[C@H]2O)c2nc(N)nc(O)c21  hydrolysis (m7GpppX diphosphatase (DCPS, Homo sapiens, UniProt Q96C86); substrate, HPLC; concentration not given, 15 min): 12.1 ± 0.9%

Repeated from above:
CC[C@H](C)[C@@H]1NC(=O)[C@H](Cc2ccccc2)NC(=O)[C@H](CCC(=O)O)NC(=O)[C@H](CCCNC(=N)N)NC(=O)CNC(=O)[C@@H](NC(=O)[C@H](CC(C)C)NC(=O)[C@H](CCCNC(=N)N)NC(=O)[C@@H](NC(=O)CNC(=O)[C@H](Cc2ccc(O)cc2)NC(=O)[C@@H]2CCCN2C(=O)[C@H](C)NC(=O)[C@H](C)NC(=O)[C@@H](N)CCCNC(=N)N)C(C)C)CSSC[C@@H]2NC(=O)[C@@H](NC(=O)[C@H](CO)NC(=O)[C@H](CO)NC(=O)[C@H](CO)NC(=O)[C@H](CC(C)C)NC(=O)CNC(=O)[C@H](C)NC(=O)[C@H](CC(C)C)NC(=O)[C@@H](NC(=O)[C@@H](N)CC(=O)O)C(C)C)CSSC[C@H](NC(=O)CNC(=O)[C@H](Cc3c[nH]c4ccccc34)NC(=O)[C@H](CCCCN)NC2=O)C(=O)N[C@@H](CO)C(=O)N[C@@H](CCCCN)C(=O)N[C@@H](CO)C(=O)N[C@@H](CCC(=O)O)C(=O)N[C@@H]([C@@H](C)CC)C(=O)N[C@@H](CO)C(=O)N[C@@H](CO)C(=O)N[C@@H](CC(C)C)C(=O)N[C@H](C(=O)O)CSSC[C@@H](C(=O)NCC(=O)NCC(=O)N[C@@H](CO)C(=O)N[C@@H](CCCNC(=N)N)C(=O)N[C@@H](Cc2c[nH]c3ccccc23)C(=O)O)NC(=O)[C@H]([C@@H](C)O)NC(=O)[C@H](Cc2ccccc2)NC(=O)[C@H]([C@@H](C)CC)NC(=O)[C@H](C(C)C)NC(=O)[C@H](C)NC(=O)[C@H](CCCNC(=N)N)NC1=O  Emax (Relaxin-3 receptor 1 (RXFP3, Homo sapiens, UniProt Q9NSD7, S163A); HEK-293T; reference: wild type): 49.9 ± 5.85%
CC[C@H](C)[C@H](NC(=O)[C@H](CCC(N)=O)NC(=O)[C@@H](NC(=O)[C@@H]1CCCN1[C@@H]1CN(C(=O)[C@H](CCCCN)NC(=O)[C@H](CC(N)=O)NC(=O)[C@@H](NC(=O)[C@@H](NC(=O)[C@H](CCC(N)=O)NC(=O)[C@@H](N)C(C)C)[C@@H](C)CC)[C@@H](C)CC)CC[C@H]1NS(=O)(=O)c1ccc(C)cc1)C(C)C)C(=O)N[C@H](C(=O)N[C@@H](Cc1ccc(O)cc1)C(=O)N[C@@H](CCCCN)C(N)=O)C(C)C  ThT fluorescence (Microtubule-associated protein tau, PHF6* peptide (MAPT, Homo sapiens, UniProt P10636); fibril formation, ThT fluorescence; 1-fold of peptide, pH 7.4, with: Ac-PHF6* 25 µM, heparin; reference: untreated): 17 ± 4%
CC1(C)C[C@@H](Nc2cccc(-c3sc(C(=O)O)c(OCC(=O)O)c3Cl)c2)CCN1S(=O)(=O)Cc1cccc(NC(=O)CN2CCC(c3ccc4c(c3)oc(=O)n4C3CCC(=O)NC3=O)CC2)c1 (stereo partly shown)  remaining protein (Tyrosine-protein phosphatase non-receptor type 1 (Mus musculus, UniProt P35821); degrader, Western blot; B16-F10; 0.0001 µM): 112% and 99.4%
